Results collected from several papers.
Each numbered part is a random draw from the data of one study; scales do not carry over between parts.

Study 1
Cell line: yeast with cyclin D2-Cln2 chimera
Observed: cell growth
Action: binder
Technique: competitive growth deep sequencing
Form: peptide
Tested at: concentration not given
Setting: peptide tiling library
Reading: direction not given
| Molecule | growth enrichment score |
| --- | --- |
| HPESPPRKRLKSKGSD | 0.43 |
| PKRAKRKLYTSEISSP | -0.198 |
| GTPKRCLDLSNLSSGE | -1.18 |
| SNFFDVIKQLFSDEKN | -2.45 |
| DWDTVERQEEEAPSWD | -0.154 |
| IFNKPECGRVQRAIFQ | -0.545 |
| ASVLSKPIFCFVKD | -0.656 |

Study 2
Target: Histone acetyltransferase KAT6A, winged helix 1, GST fusion (KAT6A, Homo sapiens, UniProt Q92794, residues 1-85)
Technique: protein binding microarray
Form: double-stranded DNA, one strand shown
Sample: in vitro
Tested at: not given
Setting: 8-mer, flanks averaged, mean of 2 arrays, mostly near background
Relative to: not given
Reading: higher = stronger binding
Construct (chain): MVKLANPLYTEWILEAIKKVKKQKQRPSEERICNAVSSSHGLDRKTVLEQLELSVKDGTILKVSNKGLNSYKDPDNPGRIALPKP
| Sequence | E-score |
| --- | --- |
| AGCTTTCA | -0.0661 |
| GTAGTAGA | 0.011 |
| CGGATTGA | 0.122 |
| GGTTTCGA | 0.178 |
| GGTGTATA | 0.0125 |
| AGAGATCT | -0.174 |
| AGTCGTAC | -0.0316 |
| CAATGCAA | -0.143 |
| ACACAACG | 0.0262 |
| GAGATTGA | -0.187 |

Study 3
Target: Prothrombin, mature alpha-thrombin (F2, Homo sapiens, UniProt P00734)
Technique: aptamer microarray, sandwich
Form: DNA with 2'F-ANA
Sample: in vitro
Tested at: 200 nM
Setting: whole 15-mer aptamer, many near background
Added: Cy3 exosite-II aptamer, 400 nM
Reading: higher = stronger binding
Sequence: GGTTGGTGTGGTTGG
| Modification | mean fluorescence intensity |
| --- | --- |
| 2'F-ANA at 4 8 11 15 | 260 a.u. |
| 2'F-ANA at 2 3 5 7 8 10 11 | 54.6 a.u. |
| 2'F-ANA at 1 3 5 8 9 10 13 15 | 89.5 a.u. |
| 2'F-ANA at 1 3 4 7 9 | 222 a.u. |
| 2'F-ANA at 1 2 3 4 5 8 10 12 13 14 | 46.2 a.u. |
| 2'F-ANA at 1 3 7 8 11 12 13 14 | 132 a.u. |
| 2'F-ANA at 3 4 5 6 8 9 10 13 | 47.1 a.u. |
| 2'F-ANA at 1 6 8 9 11 12 13 14 | 66.2 a.u. |
| 2'F-ANA at 1 2 3 4 7 8 13 14 | 83.3 a.u. |
| 2'F-ANA at 4 5 7 9 10 11 12 14 15 | 47.3 a.u. |

Single results of other studies
| Molecule | target | assay | test system | conditions | how to read | quantity | value |
| --- | --- | --- | --- | --- | --- | --- | --- |
| PhoQ, residues 284 288 289 292 302 303 SSTLSG | PhoP, residues 12 14 15 18 19 NYFTV (Escherichia coli, UniProt P23836) | Sort-seq, item: YFP reporter | E. coli | PhoQ-PhoP variant library, added: 10 µM Mg2+ | relative to: high Mg2+ state, higher = stronger signaling | fold induction | 7.36 |

Excerpt of the above (study 2):
| Sequence | E-score |
| --- | --- |
| GGTGTATA | 0.0125 |
| GGTTTCGA | 0.178 |
| GTAGTAGA | 0.011 |
